Experimental data gathered from unrelated publications.
Every numbered part comes from another study and shows a few of its results, in no order.

Series 1 — technique: RNA Bind-n-Seq; form: RNA; sample: in vitro; concentration: 20 nM; setting: 6-mer, flanks averaged, single round; added: 150 mM KCl; reference: input library; direction: higher = stronger binding
Target: TAR DNA-binding protein 43, full length, His tag (TARDBP, Homo sapiens, UniProt Q13148, residues 1-414)
Sequence	6-mer enrichment (R)
UAACCA	0.613
ACGGGG	4.28
CAUGCU	0.64
GAGCCA	0.935

Series 2 — technique: protein binding microarray; form: double-stranded DNA, one strand shown; sample: in vitro; concentration: not given; reference: not given; direction: higher = stronger binding
Target: Histone acetyltransferase KAT6A, winged helix 2, GST fusion (KAT6A, Homo sapiens, UniProt Q92794, residues 85-181)
Setting: 8-mer, flanks averaged, mean of 2 arrays, mostly near background
Residues (chain): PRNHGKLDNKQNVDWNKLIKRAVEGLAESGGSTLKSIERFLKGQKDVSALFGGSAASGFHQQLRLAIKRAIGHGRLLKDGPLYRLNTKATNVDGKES
Sequence	E-score
TGAGTACA	-0.0588
AACTGCTA	-0.0742
ACGCTGGG	-0.0433
CCTTCCAC	-0.13
CGCATGTC	-0.0753
GGGCGCCA	0.198
AACGTTGA	-0.129

Series 3 — technique: protein-binding microarray; form: double-stranded DNA, one strand shown; sample: in vitro; concentration: not given; direction: higher = stronger binding
Target: Protein C-ets-1 (ETS1, Homo sapiens, UniProt P14921, residues 1-441, full length assumed)
Setting: k-mer, scored over probes, only values ≥0.25
Construct (chain): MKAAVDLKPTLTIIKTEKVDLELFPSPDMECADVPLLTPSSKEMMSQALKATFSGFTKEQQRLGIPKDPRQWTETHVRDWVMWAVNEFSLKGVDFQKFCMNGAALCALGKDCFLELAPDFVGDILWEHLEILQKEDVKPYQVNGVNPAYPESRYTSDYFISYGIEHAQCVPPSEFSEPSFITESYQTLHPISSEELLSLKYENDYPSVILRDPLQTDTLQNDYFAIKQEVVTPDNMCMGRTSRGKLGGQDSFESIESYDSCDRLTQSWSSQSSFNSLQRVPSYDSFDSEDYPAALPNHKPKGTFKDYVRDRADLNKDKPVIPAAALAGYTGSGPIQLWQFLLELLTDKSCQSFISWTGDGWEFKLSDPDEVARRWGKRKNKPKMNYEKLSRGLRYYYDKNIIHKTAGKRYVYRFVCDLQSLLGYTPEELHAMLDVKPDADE
Sequence	E-score
CGCCGGCG	0.327
CAGGAAGC	0.474
CCTCCGCA	0.253
CCATCCCG	0.27
CGTCCTGC	0.353

Single results of other studies
Substance	target	test	test system	conditions	how to read	quantity	result
PhoQ, residues 284 288 289 292 302 303 ALAMYF	PhoP, residues 12 14 15 18 19 LHTVM (Escherichia coli, UniProt P23836)	Sort-seq, item: YFP reporter	E. coli	PhoQ-PhoP variant library, added: 10 µM Mg2+	reference: high Mg2+ state, higher = stronger signaling	fold induction	3.58

Some of these lines once more (series 2):
Sequence	E-score
CGCATGTC	-0.0753
CCTTCCAC	-0.13
